Experimental data of several laboratories.
Numbered parts are unrelated; each lists some results of a single study. Several values in a cell are separate wells, animals, samples, runs or records.

Series 1 — cell line: HEK-293T/ACE2; method: Hoechst nuclei count; concentration: concentration not given; time: 16 (unit not given); relative to: vehicle
SMILES	viability
NCCCC(N)(C(=O)O)C(F)F (centres unmarked)	107%
C[C@H](Cn1cnc2c(N)ncnc21)OCP(=O)(O)O	103%
CC(=O)O[C@H]1Cc2ccccc2N(C(N)=O)c2ccccc21	97.4%
CN(C)CCc1c[nH]c2ccc(Cn3cncn3)cc12	99.5%
CC1=NS(=O)(=O)c2cc(Cl)ccc2N1	97.5%
O=P(O)(O)C(O)(Cn1ccnc1)P(=O)(O)O	101%
Cc1ccsc1C(=CCCN1CCC[C@@H](C(=O)O)C1)c1sccc1C	97%
CN1CCCC(n2nc(Cc3ccc(Cl)cc3)c3ccccc3c2=O)CC1 (centres unmarked)	97.3%

Series 2 — method: CCK-8
SMILES: CC(C)S(=O)(=O)c1ccc2nccc(Nc3ccc4sc(C5CCCC5)nc4c3)c2c1.Cl
cell line	conditions	survival
L929 RIPK3-/- reexpressing RIPK3 K51A	6.25 µM, added: zVAD	102% and 96.8% and 100% and 93.2% and 97.9%
L929 RIPK3-/- reexpressing RIPK3 K51A	12.5 µM	105% and 101% and 99.9% and 103% and 95.5%
L929 RIPK3-/- reexpressing RIPK3 K51A/R69H	25 µM, added: zVAD	62.1% and 92.4% and 66% and 61.6%
L929 RIPK3-/- reexpressing RIPK3 K51A	50 µM	68.7% and 67.1% and 71.3% and 76.9%
L929 RIPK3-/- reexpressing RIPK3 K51A	25 µM	88.6% and 90.4% and 108% and 85.1%
L929 RIPK3-/- reexpressing RIPK3 K51A/R69H	6.25 µM, added: zVAD	85.1% and 86.5% and 102% and 92.5%

Series 3 — organism: Sarcocystis neurona; read-out: parasite growth; concentration: 10 µM; time: 96 h; setting: second screen; relative to: untreated
Structure (SMILES)	log2 fold change
Cc1ccc(-c2nc3ccc(C)cn3c2CC(=O)N(C)C)cc1	2.12
C[C@]12Cc3c[nH]nc3C[C@@H]1CC[C@@H]1[C@@H]2CC[C@@]2(C)[C@H]1CC[C@]2(C)O	-0.0662
CC(C)/N=c1\cc2n(-c3ccc(Cl)cc3)c3ccccc3nc-2cc1Nc1ccc(Cl)cc1	-4.3
CNC1=Nc2ccc(Cl)cc2C(c2ccccc2)=[N+]([O-])C1	0.27

Further values, each from its own experiment — host: human; matrix: microsomes or S9; concentration: 2 µM; time: 0.5 h
SMILES	remaining compound [%]
Cc1cc(Cl)cc(C(=O)NCCC2=NOC(CS(C)(=O)=O)C2)c1NC(=O)c1cc(Br)nn1-c1ncccc1Cl (centres unmarked)	35
CCOc1ccccc1N1CCN(Cc2cc(F)ccc2F)CC1	43.7
